Results of several laboratories.
A part holds a random share of what one study measured. Several values in a cell are separate wells, animals, samples, runs or records.
Sequence of UniProt P00519 (whole entry, unmodified, looked up): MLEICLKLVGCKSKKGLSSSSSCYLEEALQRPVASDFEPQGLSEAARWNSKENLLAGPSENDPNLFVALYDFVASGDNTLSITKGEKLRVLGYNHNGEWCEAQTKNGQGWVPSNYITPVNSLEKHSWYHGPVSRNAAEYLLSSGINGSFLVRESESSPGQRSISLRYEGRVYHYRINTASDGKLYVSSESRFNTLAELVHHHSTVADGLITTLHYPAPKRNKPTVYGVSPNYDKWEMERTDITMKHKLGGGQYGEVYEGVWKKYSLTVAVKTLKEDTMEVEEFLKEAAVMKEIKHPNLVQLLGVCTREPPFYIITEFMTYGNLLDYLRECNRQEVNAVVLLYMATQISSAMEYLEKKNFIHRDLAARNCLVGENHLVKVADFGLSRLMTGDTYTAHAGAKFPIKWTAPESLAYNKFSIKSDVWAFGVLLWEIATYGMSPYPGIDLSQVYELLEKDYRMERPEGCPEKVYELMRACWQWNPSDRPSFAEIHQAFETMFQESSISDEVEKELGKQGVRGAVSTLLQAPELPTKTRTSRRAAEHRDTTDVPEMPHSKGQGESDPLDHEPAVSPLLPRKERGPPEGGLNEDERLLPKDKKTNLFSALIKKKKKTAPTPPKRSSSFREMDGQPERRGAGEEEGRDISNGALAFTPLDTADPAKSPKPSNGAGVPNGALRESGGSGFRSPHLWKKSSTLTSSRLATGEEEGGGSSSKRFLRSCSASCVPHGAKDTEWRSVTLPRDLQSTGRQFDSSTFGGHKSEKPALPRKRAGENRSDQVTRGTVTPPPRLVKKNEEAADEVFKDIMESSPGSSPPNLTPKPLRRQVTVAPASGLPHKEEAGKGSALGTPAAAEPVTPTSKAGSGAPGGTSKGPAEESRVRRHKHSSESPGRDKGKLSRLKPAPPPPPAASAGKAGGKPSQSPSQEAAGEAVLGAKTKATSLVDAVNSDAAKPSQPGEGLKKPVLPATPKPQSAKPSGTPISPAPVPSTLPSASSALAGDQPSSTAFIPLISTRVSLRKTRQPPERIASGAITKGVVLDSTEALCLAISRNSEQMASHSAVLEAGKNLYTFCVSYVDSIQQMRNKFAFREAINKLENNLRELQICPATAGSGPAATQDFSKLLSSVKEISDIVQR
Sequence of UniProt Q16659 (whole entry, looked up): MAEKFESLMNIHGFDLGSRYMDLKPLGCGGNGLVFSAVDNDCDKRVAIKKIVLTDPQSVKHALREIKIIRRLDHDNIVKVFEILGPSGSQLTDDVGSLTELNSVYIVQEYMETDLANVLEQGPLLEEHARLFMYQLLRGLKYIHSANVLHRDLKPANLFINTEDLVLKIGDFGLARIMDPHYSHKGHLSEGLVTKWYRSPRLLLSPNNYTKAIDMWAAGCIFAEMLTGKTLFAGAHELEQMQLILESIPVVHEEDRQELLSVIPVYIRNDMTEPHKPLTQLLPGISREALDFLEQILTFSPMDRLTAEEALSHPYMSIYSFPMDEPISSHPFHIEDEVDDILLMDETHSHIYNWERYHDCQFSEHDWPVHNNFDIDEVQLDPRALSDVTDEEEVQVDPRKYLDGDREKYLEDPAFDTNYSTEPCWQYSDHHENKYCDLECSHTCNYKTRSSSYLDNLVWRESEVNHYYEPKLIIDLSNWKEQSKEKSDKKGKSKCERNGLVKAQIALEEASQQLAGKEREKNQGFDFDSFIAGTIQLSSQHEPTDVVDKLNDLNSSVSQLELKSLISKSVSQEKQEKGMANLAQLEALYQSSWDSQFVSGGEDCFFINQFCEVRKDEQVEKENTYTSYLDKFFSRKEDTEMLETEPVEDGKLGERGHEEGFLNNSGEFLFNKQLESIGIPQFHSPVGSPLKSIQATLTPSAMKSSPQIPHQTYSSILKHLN
Sequence of UniProt P43403 (whole entry, looked up): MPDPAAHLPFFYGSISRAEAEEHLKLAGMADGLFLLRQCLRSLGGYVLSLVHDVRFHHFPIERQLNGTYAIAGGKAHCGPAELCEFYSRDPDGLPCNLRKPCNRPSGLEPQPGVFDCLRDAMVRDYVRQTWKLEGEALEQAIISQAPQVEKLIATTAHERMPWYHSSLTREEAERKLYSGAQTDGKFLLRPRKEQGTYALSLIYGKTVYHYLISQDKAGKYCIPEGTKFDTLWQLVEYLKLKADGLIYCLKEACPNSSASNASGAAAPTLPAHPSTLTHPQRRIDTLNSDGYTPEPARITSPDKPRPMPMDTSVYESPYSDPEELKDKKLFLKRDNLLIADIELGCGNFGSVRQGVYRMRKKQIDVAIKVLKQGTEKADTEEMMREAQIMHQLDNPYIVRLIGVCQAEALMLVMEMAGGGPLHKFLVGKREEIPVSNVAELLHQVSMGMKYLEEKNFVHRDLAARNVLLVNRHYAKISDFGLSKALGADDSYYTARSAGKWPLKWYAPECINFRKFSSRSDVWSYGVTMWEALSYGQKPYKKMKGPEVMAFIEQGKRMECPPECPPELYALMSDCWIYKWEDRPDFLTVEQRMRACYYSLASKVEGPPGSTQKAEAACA
Sequence of UniProt Q9UEE5 (whole entry, looked up): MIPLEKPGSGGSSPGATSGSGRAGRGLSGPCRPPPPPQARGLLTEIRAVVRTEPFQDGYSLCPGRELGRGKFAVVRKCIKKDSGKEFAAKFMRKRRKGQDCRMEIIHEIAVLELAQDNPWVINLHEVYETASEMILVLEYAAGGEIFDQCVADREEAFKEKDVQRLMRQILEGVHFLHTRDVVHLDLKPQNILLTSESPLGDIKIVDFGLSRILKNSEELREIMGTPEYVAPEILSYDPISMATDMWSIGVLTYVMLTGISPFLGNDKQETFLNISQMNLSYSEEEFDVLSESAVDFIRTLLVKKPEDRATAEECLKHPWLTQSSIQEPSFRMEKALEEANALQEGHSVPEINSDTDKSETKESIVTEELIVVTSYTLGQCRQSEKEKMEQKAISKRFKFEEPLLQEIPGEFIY
Sequence of UniProt P49841 (whole entry, looked up): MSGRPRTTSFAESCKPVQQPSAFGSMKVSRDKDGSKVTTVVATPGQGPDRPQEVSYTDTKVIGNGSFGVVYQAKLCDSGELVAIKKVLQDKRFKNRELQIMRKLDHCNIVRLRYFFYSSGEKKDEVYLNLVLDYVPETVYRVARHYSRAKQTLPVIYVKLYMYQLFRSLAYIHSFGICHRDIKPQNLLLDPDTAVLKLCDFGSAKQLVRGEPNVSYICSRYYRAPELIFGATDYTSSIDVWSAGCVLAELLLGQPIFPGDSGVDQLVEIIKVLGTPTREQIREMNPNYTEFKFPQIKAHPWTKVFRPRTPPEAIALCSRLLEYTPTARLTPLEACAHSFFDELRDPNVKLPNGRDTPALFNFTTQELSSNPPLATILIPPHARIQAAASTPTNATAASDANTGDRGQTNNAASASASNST

Series 1
Structure (SMILES): C[C@@H]1CN(c2ccc(-c3cc(C(=O)NCCOCCOCCOCCOCCNC(=O)/C=C/c4[nH]cc(C(=O)N[C@@H](CC(N)=O)c5ccc(F)c(Cl)c5)c4-c4ccc(Cl)cc4F)ccc3F)cc2NC(=O)c2c[nH]c(=O)cc2C(F)(F)F)C[C@H](C)N1C
Effect on: thermal unfolding
Method: differential scanning fluorimetry
Concentration: 5.5 µM
Reading: higher = more unfolded
DCAF1: DDB1- and CUL4-associated factor 1 (DCAF1, Homo sapiens, UniProt Q9Y4B6)
Sequence of UniProt Q9Y4B6 (whole entry, looked up): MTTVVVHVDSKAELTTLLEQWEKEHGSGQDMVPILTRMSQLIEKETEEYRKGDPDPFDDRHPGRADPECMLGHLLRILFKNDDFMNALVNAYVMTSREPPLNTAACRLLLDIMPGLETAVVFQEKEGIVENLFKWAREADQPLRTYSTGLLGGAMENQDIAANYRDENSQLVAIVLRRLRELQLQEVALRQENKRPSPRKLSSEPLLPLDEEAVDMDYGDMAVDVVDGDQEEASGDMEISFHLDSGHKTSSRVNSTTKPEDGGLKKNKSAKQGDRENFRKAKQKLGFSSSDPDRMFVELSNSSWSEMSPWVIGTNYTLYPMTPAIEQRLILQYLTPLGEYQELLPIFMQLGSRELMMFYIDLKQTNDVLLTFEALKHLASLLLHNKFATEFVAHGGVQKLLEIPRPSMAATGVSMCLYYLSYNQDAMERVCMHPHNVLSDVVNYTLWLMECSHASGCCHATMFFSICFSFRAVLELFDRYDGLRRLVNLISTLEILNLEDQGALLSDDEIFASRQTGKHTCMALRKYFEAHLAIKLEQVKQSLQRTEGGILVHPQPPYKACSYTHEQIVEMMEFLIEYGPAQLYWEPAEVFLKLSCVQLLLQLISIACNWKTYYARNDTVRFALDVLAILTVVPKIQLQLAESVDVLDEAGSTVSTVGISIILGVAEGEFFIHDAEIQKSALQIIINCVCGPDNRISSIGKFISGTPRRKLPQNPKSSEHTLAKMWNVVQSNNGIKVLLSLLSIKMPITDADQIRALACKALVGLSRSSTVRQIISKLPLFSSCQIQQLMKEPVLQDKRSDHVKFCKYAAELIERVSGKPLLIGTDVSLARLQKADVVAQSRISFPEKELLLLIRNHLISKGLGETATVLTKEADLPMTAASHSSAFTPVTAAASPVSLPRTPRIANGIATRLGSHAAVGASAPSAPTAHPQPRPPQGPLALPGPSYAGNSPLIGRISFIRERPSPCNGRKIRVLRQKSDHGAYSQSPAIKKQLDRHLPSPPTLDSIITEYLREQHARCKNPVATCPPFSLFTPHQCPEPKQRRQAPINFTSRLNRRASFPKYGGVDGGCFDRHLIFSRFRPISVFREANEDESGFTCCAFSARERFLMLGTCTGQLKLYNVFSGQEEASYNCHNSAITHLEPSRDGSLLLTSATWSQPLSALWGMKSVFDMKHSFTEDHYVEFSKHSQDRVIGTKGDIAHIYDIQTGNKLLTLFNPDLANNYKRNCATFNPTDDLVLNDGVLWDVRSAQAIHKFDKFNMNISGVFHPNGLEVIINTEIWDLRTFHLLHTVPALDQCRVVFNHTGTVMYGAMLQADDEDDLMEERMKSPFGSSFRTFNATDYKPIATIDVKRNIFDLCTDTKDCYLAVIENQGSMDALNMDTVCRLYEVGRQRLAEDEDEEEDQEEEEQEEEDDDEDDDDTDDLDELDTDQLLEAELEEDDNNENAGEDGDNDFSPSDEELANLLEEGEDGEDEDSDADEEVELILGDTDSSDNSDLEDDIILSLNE
WDR5: WD repeat-containing protein 5 (WDR5, Homo sapiens, UniProt P61964)
| target | conditions | SYPRO Orange fluorescence [a.u.] |
| --- | --- | --- |
| DCAF1 | 71.01 °C | 54600 |
| WDR5 | 92.01 °C | 48500 |
| DCAF1 | 49.2 °C | 14800 |
| WDR5 | 52.41 °C | 16800 |
| WDR5 | 28 °C | 12900 |
| DCAF1 | 87.21 °C | 37700 |
| WDR5 | 62.01 °C | 14900 |
| WDR5 | 49.8 °C | 16400 |
| WDR5 | 46.8 °C | 15700 |
| DCAF1 | 82.21 °C | 42900 |
| DCAF1 | 83.41 °C | 41900 |

Series 2
Structure (SMILES): CC[C@@]1(c2cccc(-c3c(F)cncc3OC)c2)C2=C(Nc3n[nH]cc31)[C@H](F)C(C)(C)CC2=O (single isomer, unassigned)
Concentration: 1 µM
| target | assay | scale | remaining binding [%] |
| --- | --- | --- | --- |
| CDK18 (Homo sapiens, UniProt Q07002) | binding, competition with immobilised ligand |  | 71 |
| GSK3B (Homo sapiens, UniProt P49841) | kinase binding, KINOMEscan | relative to: DMSO control | 0.5 |
| PRKCD (Homo sapiens, UniProt Q05655) | binding, competition with immobilised ligand |  | 100 |
| SRMS (Homo sapiens, UniProt Q9H3Y6) | binding, competition with immobilised ligand |  | 69 |
| CSNK1D (Homo sapiens, UniProt P48730) | binding, competition with immobilised ligand |  | 97 |
| VRK2 (Homo sapiens, UniProt Q86Y07) | kinase binding, KINOMEscan | relative to: DMSO control | 64 |
| MAPK6 (Homo sapiens, UniProt Q16659) | kinase binding, KINOMEscan | relative to: DMSO control | 100 |
| PRPF4B (Homo sapiens, UniProt Q13523) | binding, competition with immobilised ligand |  | 100 |
| STK17A (Homo sapiens, UniProt Q9UEE5) | binding, competition with immobilised ligand |  | 81 |
| Tyrosine-protein kinase ABL1, phosphorylated (ABL1, Homo sapiens, UniProt P00519, E255K) | binding, competition with immobilised ligand |  | 79 |
| ZAP70 (Homo sapiens, UniProt P43403) | binding, competition with immobilised ligand |  | 75 |
| TSSK1B (Homo sapiens, UniProt Q9BXA7) | kinase binding, KINOMEscan | relative to: DMSO control | 95 |
| DCLK3 (Homo sapiens, UniProt Q9C098) | binding, competition with immobilised ligand |  | 76 |
| PRKCH (Homo sapiens, UniProt P24723) | kinase binding, KINOMEscan | relative to: DMSO control | 91 |
| Tyrosine-protein kinase ABL1, phosphorylated (ABL1, Homo sapiens, UniProt P00519, F317L) | binding, competition with immobilised ligand |  | 70 |
| STK35 (Homo sapiens, UniProt Q8TDR2) | binding, competition with immobilised ligand |  | 100 |
| PRKD1 (Homo sapiens, UniProt Q15139) | binding, competition with immobilised ligand |  | 88 |
| MAP2K5 (Homo sapiens, UniProt Q13163) | binding, competition with immobilised ligand |  | 65 |

Series 3
Structure (SMILES): Cc1ncsc1-c1ccc(C(CO)NC(=O)C2CC(O)CN2C(=O)C(NC(=O)c2ccc(COc3c(-c4c(C)c(F)cc5[nH]ncc45)c(C4CC4)cc4c(N5CC6CC5CN6)nc(OC5CCOCC5)nc34)cc2)C(C)C)cc1 (stereo not drawn)
Cell line: AsPC-1
Method: in-cell ELISA
| conditions | phospho-ERK1/2 level |
| --- | --- |
| 300 nM, individual replicates | 8.92% and 23% and 9.23% and 16.2% and 9.54% and 23.9% |
| 1 nM, individual replicates | 99.9% and 90.5% and 91% and 91.7% and 97.8% |
| 100 nM, per-experiment values | 34.3% and 31.4% and 53.1% |
| 10 nM, individual replicates | 93.8% and 89.1% and 95.6% and 85% and 85.9% |
| 3 nM, per-experiment values | 96.8% and 98.5% and 89.4% |
| 30 nM, per-experiment values | 86% and 75.2% and 81.5% |

Further values, each from its own experiment
| Compound | tested on | assay | test system | conditions | scale | quantity | result |
| --- | --- | --- | --- | --- | --- | --- | --- |
| Cc1ccc(O)c(C)c1-c1cnc2[nH]c(-c3cnc(N4CCC5(CC4)CC(N4CCN(c6ccc(N[C@H]7CCC(=O)NC7=O)cc6F)CC4)CO5)nc3)cc2c1C#N (single isomer, unassigned) | ABL1 phosphorylated human | KINOMEscan |  | 1000 nM | relative to: control | binding remaining | 83% |
| Cc1ccc(O)c(C)c1-c1cnc2[nH]c(-c3cnc(N4CCC(CN5CCN(c6ccc(NC7CCC(=O)NC7=O)cc6F)CC5)CC4)nc3)cc2c1C#N (stereo not drawn) |  |  | cynomolgus monkey, male, plasma | oral, 10 mg/kg |  | AUC(0-last) | 1040 ng·h/mL |
| Cc1ccc(O)c(C)c1-c1cnc2[nH]c(-c3cnc(N4CCC(CN5CCN(c6cc7c(cc6F)n(C6CCC(=O)NC6=O)c(=O)n7C)CC5)CC4)nc3)cc2c1C#N (stereo not drawn) |  |  | CD-1 mouse, female, plasma | intravenous, 1 mg/kg |  | plasma clearance | 45.5 mL/min/kg |
| Cc1ccc(O)c(C)c1-c1cnc2[nH]c(-c3cnc(N4CCC(CCN5CCN(c6ccc(NC7CCC(=O)NC7=O)cc6F)CC5)CC4)nc3)cc2c1C#N (stereo not drawn) |  |  | CD-1 mouse | oral, 60 mg/kg, 24 h |  | plasma concentration | not detected |

For quick reference, copied from above (series 1):
| target | conditions | SYPRO Orange fluorescence [a.u.] |
| --- | --- | --- |
| WDR5 | 28 °C | 12900 |
| DCAF1 | 87.21 °C | 37700 |
| WDR5 | 62.01 °C | 14900 |
